Results from different studies.
Numbered parts are unrelated; each lists some results of a single study. Values joined by “and” are separate records of one study, mostly repeats; a detail may differ.
Sequence of UniProt P42336 (whole entry, unmodified, looked up): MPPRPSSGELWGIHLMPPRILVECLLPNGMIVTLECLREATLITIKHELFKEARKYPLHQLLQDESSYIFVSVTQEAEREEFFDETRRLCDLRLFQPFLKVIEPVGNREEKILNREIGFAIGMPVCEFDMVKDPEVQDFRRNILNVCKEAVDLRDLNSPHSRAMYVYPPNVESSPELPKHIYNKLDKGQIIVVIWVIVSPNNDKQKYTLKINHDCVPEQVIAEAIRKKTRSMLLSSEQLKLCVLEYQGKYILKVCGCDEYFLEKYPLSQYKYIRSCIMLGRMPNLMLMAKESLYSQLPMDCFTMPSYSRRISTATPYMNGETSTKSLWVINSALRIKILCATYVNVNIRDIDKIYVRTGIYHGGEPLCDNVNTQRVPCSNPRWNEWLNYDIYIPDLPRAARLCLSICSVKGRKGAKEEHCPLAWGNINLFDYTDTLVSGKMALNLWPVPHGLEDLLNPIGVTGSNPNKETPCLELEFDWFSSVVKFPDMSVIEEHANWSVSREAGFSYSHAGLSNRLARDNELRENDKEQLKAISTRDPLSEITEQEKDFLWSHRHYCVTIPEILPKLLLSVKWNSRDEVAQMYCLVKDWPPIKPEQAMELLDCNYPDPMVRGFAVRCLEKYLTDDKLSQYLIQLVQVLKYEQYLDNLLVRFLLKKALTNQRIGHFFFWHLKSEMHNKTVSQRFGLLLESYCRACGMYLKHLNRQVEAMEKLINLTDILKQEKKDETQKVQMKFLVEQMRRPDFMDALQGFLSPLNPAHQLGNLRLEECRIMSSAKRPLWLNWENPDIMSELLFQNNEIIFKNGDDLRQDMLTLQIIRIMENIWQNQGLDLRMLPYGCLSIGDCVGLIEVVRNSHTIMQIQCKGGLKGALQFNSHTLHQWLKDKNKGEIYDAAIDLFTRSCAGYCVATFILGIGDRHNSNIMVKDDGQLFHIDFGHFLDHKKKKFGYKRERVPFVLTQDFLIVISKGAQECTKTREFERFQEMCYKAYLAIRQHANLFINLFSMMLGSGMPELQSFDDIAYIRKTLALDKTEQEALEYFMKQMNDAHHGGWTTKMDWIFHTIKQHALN
Sequence of UniProt P36896 (whole entry, looked up): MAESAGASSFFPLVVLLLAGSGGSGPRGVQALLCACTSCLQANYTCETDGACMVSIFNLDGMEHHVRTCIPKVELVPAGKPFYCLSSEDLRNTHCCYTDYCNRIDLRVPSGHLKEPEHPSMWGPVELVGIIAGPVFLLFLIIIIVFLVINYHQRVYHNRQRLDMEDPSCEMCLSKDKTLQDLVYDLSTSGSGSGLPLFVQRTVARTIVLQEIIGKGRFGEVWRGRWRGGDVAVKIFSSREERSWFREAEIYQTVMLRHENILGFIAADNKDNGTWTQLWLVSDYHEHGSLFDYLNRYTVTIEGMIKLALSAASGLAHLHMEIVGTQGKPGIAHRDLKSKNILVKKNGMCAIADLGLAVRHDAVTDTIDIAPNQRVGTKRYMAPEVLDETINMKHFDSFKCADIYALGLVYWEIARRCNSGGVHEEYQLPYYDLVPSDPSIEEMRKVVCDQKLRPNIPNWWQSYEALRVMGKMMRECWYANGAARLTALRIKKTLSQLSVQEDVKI
Sequence of UniProt Q15139 (whole entry, looked up): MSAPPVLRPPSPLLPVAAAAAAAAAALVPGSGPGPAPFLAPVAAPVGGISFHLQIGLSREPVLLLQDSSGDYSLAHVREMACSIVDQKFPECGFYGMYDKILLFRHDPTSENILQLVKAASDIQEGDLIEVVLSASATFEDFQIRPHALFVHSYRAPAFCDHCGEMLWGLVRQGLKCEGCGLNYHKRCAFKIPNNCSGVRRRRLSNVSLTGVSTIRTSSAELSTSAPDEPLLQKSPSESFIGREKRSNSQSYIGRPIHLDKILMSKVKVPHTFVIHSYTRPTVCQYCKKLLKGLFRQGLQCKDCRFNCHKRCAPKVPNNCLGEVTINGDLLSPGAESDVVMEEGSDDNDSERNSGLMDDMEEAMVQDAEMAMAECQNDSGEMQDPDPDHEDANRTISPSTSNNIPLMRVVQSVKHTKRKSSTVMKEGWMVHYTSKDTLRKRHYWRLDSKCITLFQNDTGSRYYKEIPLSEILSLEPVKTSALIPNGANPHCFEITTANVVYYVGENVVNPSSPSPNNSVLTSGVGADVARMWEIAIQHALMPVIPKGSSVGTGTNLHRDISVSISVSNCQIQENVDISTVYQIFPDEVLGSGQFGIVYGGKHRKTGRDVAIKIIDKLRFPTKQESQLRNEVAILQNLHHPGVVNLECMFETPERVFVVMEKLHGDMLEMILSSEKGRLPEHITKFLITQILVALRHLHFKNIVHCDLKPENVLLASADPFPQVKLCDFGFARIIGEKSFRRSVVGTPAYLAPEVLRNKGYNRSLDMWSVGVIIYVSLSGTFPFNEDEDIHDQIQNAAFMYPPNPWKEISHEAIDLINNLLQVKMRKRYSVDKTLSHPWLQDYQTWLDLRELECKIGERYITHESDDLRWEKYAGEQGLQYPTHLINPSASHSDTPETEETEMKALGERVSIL
Sequence of UniProt Q09013 (whole entry, looked up): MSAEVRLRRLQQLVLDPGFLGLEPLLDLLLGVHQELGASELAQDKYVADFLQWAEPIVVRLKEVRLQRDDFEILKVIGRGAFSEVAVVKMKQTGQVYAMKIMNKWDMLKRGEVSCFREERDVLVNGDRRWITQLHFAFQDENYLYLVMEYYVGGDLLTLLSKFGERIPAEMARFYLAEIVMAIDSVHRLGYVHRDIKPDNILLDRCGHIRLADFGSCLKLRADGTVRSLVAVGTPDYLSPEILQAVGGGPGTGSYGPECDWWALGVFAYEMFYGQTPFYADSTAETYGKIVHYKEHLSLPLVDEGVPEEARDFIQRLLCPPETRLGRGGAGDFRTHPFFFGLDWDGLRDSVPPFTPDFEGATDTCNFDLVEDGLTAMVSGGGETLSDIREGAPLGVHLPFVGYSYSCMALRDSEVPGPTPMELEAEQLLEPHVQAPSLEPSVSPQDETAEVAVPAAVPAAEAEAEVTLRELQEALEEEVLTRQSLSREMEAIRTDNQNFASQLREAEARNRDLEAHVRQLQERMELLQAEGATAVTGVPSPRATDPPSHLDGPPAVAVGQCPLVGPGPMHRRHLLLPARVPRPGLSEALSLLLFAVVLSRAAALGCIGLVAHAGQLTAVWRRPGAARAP
Sequence of UniProt P24723 (whole entry, looked up): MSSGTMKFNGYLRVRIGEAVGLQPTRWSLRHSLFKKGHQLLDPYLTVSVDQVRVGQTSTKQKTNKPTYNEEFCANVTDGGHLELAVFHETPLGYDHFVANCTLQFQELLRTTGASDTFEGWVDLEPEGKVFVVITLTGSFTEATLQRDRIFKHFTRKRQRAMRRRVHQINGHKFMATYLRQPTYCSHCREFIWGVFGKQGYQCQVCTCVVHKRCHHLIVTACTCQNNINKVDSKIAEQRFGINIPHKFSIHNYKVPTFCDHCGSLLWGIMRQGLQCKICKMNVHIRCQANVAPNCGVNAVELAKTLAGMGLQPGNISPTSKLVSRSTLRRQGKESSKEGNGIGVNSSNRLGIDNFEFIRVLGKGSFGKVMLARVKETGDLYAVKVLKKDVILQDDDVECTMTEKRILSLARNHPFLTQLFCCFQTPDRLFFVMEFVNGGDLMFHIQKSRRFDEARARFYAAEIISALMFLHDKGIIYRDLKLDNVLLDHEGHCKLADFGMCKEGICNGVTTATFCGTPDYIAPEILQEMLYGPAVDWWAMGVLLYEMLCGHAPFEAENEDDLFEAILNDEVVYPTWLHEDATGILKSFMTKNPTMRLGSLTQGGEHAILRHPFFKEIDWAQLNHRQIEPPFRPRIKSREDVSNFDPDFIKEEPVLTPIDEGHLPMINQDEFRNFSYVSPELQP
Sequence of UniProt P07332 (whole entry, looked up): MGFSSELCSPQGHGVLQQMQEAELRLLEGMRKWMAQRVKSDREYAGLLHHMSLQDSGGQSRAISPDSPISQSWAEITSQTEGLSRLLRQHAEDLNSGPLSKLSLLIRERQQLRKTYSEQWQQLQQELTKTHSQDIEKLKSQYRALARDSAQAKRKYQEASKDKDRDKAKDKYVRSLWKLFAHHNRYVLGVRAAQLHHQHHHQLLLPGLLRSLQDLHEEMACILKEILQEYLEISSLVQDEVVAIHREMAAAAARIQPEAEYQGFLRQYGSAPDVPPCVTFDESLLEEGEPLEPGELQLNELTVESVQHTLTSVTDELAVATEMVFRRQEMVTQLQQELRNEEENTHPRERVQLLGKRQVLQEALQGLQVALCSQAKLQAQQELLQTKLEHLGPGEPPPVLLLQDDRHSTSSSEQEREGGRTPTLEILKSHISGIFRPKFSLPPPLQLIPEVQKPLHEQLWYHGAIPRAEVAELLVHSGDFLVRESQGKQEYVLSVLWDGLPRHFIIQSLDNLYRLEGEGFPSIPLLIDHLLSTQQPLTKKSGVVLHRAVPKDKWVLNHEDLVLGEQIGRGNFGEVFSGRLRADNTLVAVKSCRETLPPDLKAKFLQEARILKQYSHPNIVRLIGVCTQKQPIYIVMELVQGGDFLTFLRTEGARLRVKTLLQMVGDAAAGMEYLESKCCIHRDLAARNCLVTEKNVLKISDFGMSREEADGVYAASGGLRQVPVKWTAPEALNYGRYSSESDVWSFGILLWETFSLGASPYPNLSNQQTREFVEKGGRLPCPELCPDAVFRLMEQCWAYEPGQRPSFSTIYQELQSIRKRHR

Sample 1
Compound: Cc1nc(Cc2cccc(C(F)(F)F)c2)sc1-c1ccc(C(N)=O)nc1
Observed: cell-free assay
Method: competition with immobilised ligand
Tested at: 1 µM
WNK3 (Homo sapiens, UniProt Q9BYP7) — remaining binding: 61%.
The remaining binding was 83% (FGFR1 (Homo sapiens, UniProt P11362)).
It gave 86% for remaining binding (PIK3CA (Homo sapiens, UniProt P42336, Q546K)).
The remaining binding was 100% (STK36 (Homo sapiens, UniProt Q9NRP7)).
MET (Homo sapiens, UniProt P08581, M1250T) — remaining binding: 92%.
For SBK1 (Homo sapiens, UniProt Q52WX2): remaining binding read 100%.
It gave 100% for remaining binding (MAP3K19 (Homo sapiens, UniProt Q56UN5)).
The remaining binding was 66% (PIK3CA (Homo sapiens, UniProt P42336, E542K)).
TTK (Homo sapiens, UniProt P33981) — remaining binding: 82%.
It gave 97% for remaining binding (MAP3K3 (Homo sapiens, UniProt Q99759)).
WEE1 (Homo sapiens, UniProt P30291) — remaining binding: 96%.
It gave 99% for remaining binding (MAP3K6 (Homo sapiens, UniProt O95382)).
For STK16 (Homo sapiens, UniProt O75716): remaining binding read 100%.
The remaining binding was 98% (EGFR (Homo sapiens, UniProt P00533, T790M)).
The remaining binding was 94% (BMPR1B (Homo sapiens, UniProt O00238)).
The remaining binding was 100% (DYRK1B (Homo sapiens, UniProt Q9Y463)).
It gave 96% for remaining binding (CSNK2A2 (Homo sapiens, UniProt P19784)).
The remaining binding was 100% (Non-receptor tyrosine-protein kinase TYK2, JH1 (TYK2, Homo sapiens, UniProt P29597)).
MAP3K15 (Homo sapiens, UniProt Q6ZN16) — remaining binding: 100%.
It gave 100% for remaining binding (DMPK (Homo sapiens, UniProt Q09013)).
The remaining binding was 75% (ACVR1B (Homo sapiens, UniProt P36896)).
The remaining binding was 82% (Ribosomal protein S6 kinase alpha-4, N-terminal kinase domain (RPS6KA4, Homo sapiens, UniProt O75676)).
For MAP3K4 (Homo sapiens, UniProt Q9Y6R4): remaining binding read 72%.
SIK2 (Homo sapiens, UniProt Q9H0K1) — remaining binding: 90%.
For CDK17 (Homo sapiens, UniProt Q00537): remaining binding read 83%.

Sample 2
SMILES: CN1CCN(C(=O)c2ccc(NC(=O)Nc3ccc(N(C)c4ccnc(Nc5ccc(CS(C)(=O)=O)cc5)n4)cc3)cc2)CC1
Observed: binding
Tested at: 1 µM
It gave 61% for remaining binding (Insulin receptor (INSR, Homo sapiens, UniProt P06213)).
It gave 93% for remaining binding (Ribosomal protein S6 kinase alpha-1, C-terminal kinase domain (RPS6KA1, Homo sapiens, UniProt Q15418); competition with immobilised ligand).
It gave 54% for remaining binding (EGFR (Homo sapiens, UniProt P00533, T790M)).
The remaining binding was 43% (MAP4K2 (Homo sapiens, UniProt Q12851); competition with immobilised ligand).
The remaining binding was 99% (PRKCE (Homo sapiens, UniProt Q02156)).
PRKACB (Homo sapiens, UniProt P22694); competition with immobilised ligand — remaining binding: 100%.
It gave 88% for remaining binding (TGFBR1 (Homo sapiens, UniProt P36897); competition with immobilised ligand).
PIM3 (Homo sapiens, UniProt Q86V86) — remaining binding: 100%.
PRKCH (Homo sapiens, UniProt P24723) — remaining binding: 100%.
PRKD1 (Homo sapiens, UniProt Q15139) — remaining binding: 100%.
For FES (Homo sapiens, UniProt P07332): remaining binding read 67%.
ACVR1B (Homo sapiens, UniProt P36896); competition with immobilised ligand — remaining binding: 77%.
For INSRR (Homo sapiens, UniProt P14616): remaining binding read 100%.

Sample 3
SMILES: c1ccc(Oc2ccc(Nc3c4c(nc5ccccc35)CCC4)cc2)cc1
Organism: Leishmania infantum
Method: qPCR, delta Ct
Species: golden hamster, infected
Route: oral
Dose: 10 mg/kg/day
Time: 10 days
Reference: microglobulin reference gene
The “relative mRNA level” was 5.18 and 5.44 and 5.75 and 5.4 (item: IL10; spleen).
The “relative mRNA level” was -0.0545 and 0.625 and 1.31 and 3.31 and 1.06 and -0.12 (item: TGF-beta; spleen).
The “relative mRNA level” was 6.51 and 6.62 and 10.6 and 7.53 and 8.71 and 4.48 (item: IL4; liver).
For item: TGF-beta; liver: “relative mRNA level” read 8.17 and 7.81 and 6.27 and 6.28 and 4.88 and 7.61.
It gave 9.5 and 11.1 and 9.99 and 11.8 for “relative mRNA level” (item: IFN-gamma; liver).
For item: IFN-gamma; spleen: “relative mRNA level” read 5.75 and 6.76 and 8.82 and 10.8 and 10.5.

Sample 4
Cell line: A-375
Tested at: 100 µM
Time: 36 h
The viability of `CO[C@H]1C[C@@H]2CC[C@@H](C)[C@@](O)(O2)C(=O)C(=O)N2CCCC[C@H]2C(=O)O[C@H]([C@H](C)C[C@@H]2CC[C@@H](OCCO)[C@H](OC)C2)CC(=O)[C@H](C)/C=C(\C)[C@@H](O)[C@@H](OC)C(=O)[C@H](C)C[C@H](C)/C=C/C=C/C=C/1C` is reported as 5.59%.
The viability of `CO[C@H]1/C=C/O[C@@]2(C)Oc3c(C)c(O)c4c(O)c(c(/C=N/N5CCN(C)CC5)c(O)c4c3C2=O)NC(=O)/C(C)=C\C=C\[C@H](C)[C@H](O)[C@@H](C)[C@@H](O)[C@@H](C)[C@H](OC(C)=O)[C@@H]1C` is reported as 126%.
The viability of `O=C(O[C@H]1C[N+]2(CCCOc3ccccc3)CCC1CC2)C(O)(c1cccs1)c1cccs1` is reported as 98.7%.
The viability of `Oc1ccc(/C=C/c2cc(O)cc(O)c2)cc1` is reported as 35.8%.
`COc1c(N2CCNC(C)C2)c(F)cc2c(=O)c(C(=O)O)cn(C3CC3)c12` (stereo not drawn) gave a viability of 19.5%.
`COc1ccc(-c2ccc3cc(C(=O)O)ccc3c2)cc1[C@]12C[C@H]3C[C@H](C[C@H](C3)C1)C2` gave a viability of 0.896%.
With `NC[C@H](O)c1ccc(O)c(O)c1` the viability was 87% and 115%.
`Nc1nc2c(c(=O)[nH]1)N(C=O)C(CNc1ccc(C(=O)N[C@@H](CCC(=O)O)C(=O)O)cc1)CN2` (stereo partly drawn) has a viability of 104%.
For `Cn1c(=O)c2[nH]cnc2n(C)c1=O`, the viability was 82.1% and 117% and 66.5%.
`CCC(=O)O[C@]1(C(=O)CCl)[C@@H](C)C[C@H]2[C@@H]3CCC4=CC(=O)C=C[C@]4(C)[C@@]3(F)[C@@H](O)C[C@@]21C` gave a viability of 73.9%.

Some of these lines once more (sample 2):
It gave 88% for remaining binding (TGFBR1 (Homo sapiens, UniProt P36897); competition with immobilised ligand).
For FES (Homo sapiens, UniProt P07332): remaining binding read 67%.
The remaining binding was 43% (MAP4K2 (Homo sapiens, UniProt Q12851); competition with immobilised ligand).
The remaining binding was 99% (PRKCE (Homo sapiens, UniProt Q02156)).
PIM3 (Homo sapiens, UniProt Q86V86) — remaining binding: 100%.
ACVR1B (Homo sapiens, UniProt P36896); competition with immobilised ligand — remaining binding: 77%.
It gave 93% for remaining binding (Ribosomal protein S6 kinase alpha-1, C-terminal kinase domain (RPS6KA1, Homo sapiens, UniProt Q15418); competition with immobilised ligand).
It gave 54% for remaining binding (EGFR (Homo sapiens, UniProt P00533, T790M)).
